{"data": "Assay results of several laboratories", "note": "Numbered parts are unrelated; each lists some results of a single study. Changes are numbered by the printed parent chain."}
{"data": "Set 1", "target": "RING finger protein unkempt homolog, zinc fingers 1-6, SBP tag (UNK, Homo sapiens, UniProt Q9C0B0, residues 30-357)", "technique": "RNA Bind-n-Seq", "form": "RNA", "matrix": "in vitro", "tested at": "100 nM", "notes": "RNA with constant flanks, vertebrate orthologous sites, ends assumed", "reference": "input RNA pool", "reading": "higher = stronger binding", "all sequences stand within": "GGGAGUUCUACAGUCCGACGAUC … CAACAGAGGAUUGAGCAUCA", "sequence of UniProt Q9C0B0 (30-357, looked up)": "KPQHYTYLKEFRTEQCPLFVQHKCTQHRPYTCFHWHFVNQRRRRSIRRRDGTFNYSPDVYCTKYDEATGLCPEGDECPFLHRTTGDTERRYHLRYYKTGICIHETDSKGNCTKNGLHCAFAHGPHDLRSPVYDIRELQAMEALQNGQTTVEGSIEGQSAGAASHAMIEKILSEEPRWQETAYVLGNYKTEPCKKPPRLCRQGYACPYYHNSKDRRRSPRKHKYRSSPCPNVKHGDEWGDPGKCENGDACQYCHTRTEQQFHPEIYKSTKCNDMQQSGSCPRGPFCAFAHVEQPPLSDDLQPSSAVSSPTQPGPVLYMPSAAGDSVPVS"}
{"Oligonucleotide": "CUAUUUAAAUGUUUAAAUUAUAUUUAAUUACCUCAUUCCUGUUCUUUUUCCUUACUGAAAUAGUUUUCAUCUCUAUUAUUGCAAAUAACCUAAAGUUUCUACUUUAGGCUAACUUGUUUU", "bound/input enrichment [ratio]": 0.725}
{"Oligonucleotide": "CUCUCUAAGUGACAGUAUCCCAUCUGUAGCAGAUUCCCACUCAAGUCAUUUUUCUGAGUUUAGUUGCUCUGAUAUGGAAAGUAUGAAAACCUCAUGUAGCCACGGUUCCAAUGAUUACCA", "bound/input enrichment [ratio]": 0.581}
{"Oligonucleotide": "UUACAGUCAUUGAUGGACUCUAUUUUUUUAUUAUUACUUGGACCUUGGUCGUUUUUAUACUAGCAAUGAAAAUGUCUUGUUUUAAUUUGUUUUUUGGGGUGUGGGGUGGGCAAUGUCUUG", "bound/input enrichment [ratio]": 0.911}
{"Oligonucleotide": "CCGUUCUGUGAAACAUGUCUACCCAGAAAUGUAGCAUUCUAUAAAUGCUAUUAAACAACUUAGCUAUAUUAUUUUUAAGUAUUAAAUUAUAUGUCAAGCAGUUAAAGUGAAUUUCAGAGU", "bound/input enrichment [ratio]": 0.926}
{"Oligonucleotide": "CUGUAAUAGUGCUUUUCUAUGGAAGAGAUGAAUUGGGAAAACCACCACCUUUUUAUAGAUCACUGUGUUUCUAAAUUAUGACCAAAAAUAUUUUGCUAUUUCUUUAUAUAUGGAAUCUUU", "bound/input enrichment [ratio]": 0.798}
{"data": "Set 2", "target": "RNA binding protein fox-1 homolog 2, RRM domain, GST-SBP tag (RBFOX2, Homo sapiens, UniProt O43251-10, residues 100-194)", "technique": "RNA Bind-n-Seq", "form": "RNA", "matrix": "in vitro", "tested at": "365 nM", "notes": "natural RNA segment, single round, ends assumed", "reference": "no-protein control", "reading": "higher = stronger binding", "all sequences stand within": "GGGAGUUCUACAGUCCGACGAUC … UGGAAUUCUCGGGUGCCAA"}
{"Oligonucleotide": "AAGAGUUCUUAAUAUAUUCUGGAUACAAGUCCUUUUAAGACAUGAUUUGCAAAUAUUUUCUCCCAGUCUGUGGCUUAUCUUUUCCUAAUGGUGUCUUUUGAAAUGCACUU", "RBNS enrichment (R)": 0.5}
{"Oligonucleotide": "AGAUCACACCACUGCACUCCAGCCUGGGUGACAGAGCAAGACCCUGUCUCAAAAAAAAAAAAAAAAAAAAUGGAAGUUGUGGUCACAAUGCCCAGGCUUCUUUGUUAUAG", "RBNS enrichment (R)": 0.682}
{"Oligonucleotide": "CCCUGAGUUGUGUUGAAGUCCCCUGGACAAUGAGCAGGGGUGGCAGAGGACAGCAGCAGCCACUGCCCUCACCUUUAACCCCUUGCCUUGCCUCCCAGGGAUUUGUGAGC", "RBNS enrichment (R)": 0.463}
{"Oligonucleotide": "UGCAUCUCCUUCCAGGUCAGCUCAUUCACAAGAGUUGCUCCCAAGCCUGGAUGAGUUGCACCUUGCAUCUUGAGCAUGCAUUUCUCACAAUAAUUAUUAAGCUGUGUGAU", "RBNS enrichment (R)": 0.845}
{"Oligonucleotide": "ACACAGAGCAGCGUAGACAUUUGUGAGCUUCGGUGCUGUUCAGUGCCUGCUUCUUCAUCACCUUAAUUUCUGCCAUAACCUGGACUUCGCUGACUGUGUGACUGCCCUGC", "RBNS enrichment (R)": 1.18}
{"Oligonucleotide": "CGCUACCACCUGUUUUCAAGAGAACAUAGAACUCCAACGUAACCGUCAUUUCAAAGAUUUACUGUAUGUAUAGUUGAUUUUGUGGACUGAAUUUAAUGCUUCCAAAUGUU", "RBNS enrichment (R)": 0.764}
{"data": "Set 3", "target": "CCND2, cyclin fold, Cln2 fusion (human)", "technique": "yeast growth competition, sequencing", "matrix": "yeast", "notes": "weak parent motif", "reference": "not given", "reading": "higher = stronger binding", "starting sequence": "GMNC docking peptide (human); KNAKRNLSSEFAN"}
{"Variant": "KNFKRNLSSEFAN [A3F]", "normalised enrichment score": 0.295}
{"Variant": "KCAKRNLSSEFAN [N2C]", "normalised enrichment score": 0.203}
{"Variant": "KNAKRNLQSEFAN [S8Q]", "normalised enrichment score": 0.54}
{"Variant": "KNACRNLSSEFAN [K4C]", "normalised enrichment score": 0.645}
{"data": "Further values, each from its own experiment"}
{"Substance": "PhoQ, residues 284 288 289 292 302 303 SACGEM", "target": "PhoP, residues 12 14 15 18 19 GQAIL (Escherichia coli, UniProt P23836)", "test": "Sort-seq, measured: YFP reporter", "system": "E. coli", "setting": "PhoQ-PhoP variant library, added: 10 µM Mg2+", "how to read": "reference: high Mg2+ state, higher = stronger signaling", "endpoint": "fold induction", "value": 4.78}
{"note": "Excerpt of the above (set 2):"}
{"Oligonucleotide": "CCCUGAGUUGUGUUGAAGUCCCCUGGACAAUGAGCAGGGGUGGCAGAGGACAGCAGCAGCCACUGCCCUCACCUUUAACCCCUUGCCUUGCCUCCCAGGGAUUUGUGAGC", "RBNS enrichment (R)": 0.463}
{"Oligonucleotide": "ACACAGAGCAGCGUAGACAUUUGUGAGCUUCGGUGCUGUUCAGUGCCUGCUUCUUCAUCACCUUAAUUUCUGCCAUAACCUGGACUUCGCUGACUGUGUGACUGCCCUGC", "RBNS enrichment (R)": 1.18}
